Measurements gathered from unrelated publications.
Lines come from different studies, so protocols differ. Several values in a cell are separate wells, animals, samples, runs or records. Numbers after ± are the reported error.
ELANE: Neutrophil elastase (ELANE, Homo sapiens, UniProt P08246)
Cereblon/Ikaros: Cereblon/Ikaros (Homo sapiens, UniProt Q13422+Q96SW2)
BEST2: Bestrophin-2a (BEST2, Homo sapiens, UniProt Q8NFU1)
Chain of UniProt Q8NFU1 (whole entry, looked up): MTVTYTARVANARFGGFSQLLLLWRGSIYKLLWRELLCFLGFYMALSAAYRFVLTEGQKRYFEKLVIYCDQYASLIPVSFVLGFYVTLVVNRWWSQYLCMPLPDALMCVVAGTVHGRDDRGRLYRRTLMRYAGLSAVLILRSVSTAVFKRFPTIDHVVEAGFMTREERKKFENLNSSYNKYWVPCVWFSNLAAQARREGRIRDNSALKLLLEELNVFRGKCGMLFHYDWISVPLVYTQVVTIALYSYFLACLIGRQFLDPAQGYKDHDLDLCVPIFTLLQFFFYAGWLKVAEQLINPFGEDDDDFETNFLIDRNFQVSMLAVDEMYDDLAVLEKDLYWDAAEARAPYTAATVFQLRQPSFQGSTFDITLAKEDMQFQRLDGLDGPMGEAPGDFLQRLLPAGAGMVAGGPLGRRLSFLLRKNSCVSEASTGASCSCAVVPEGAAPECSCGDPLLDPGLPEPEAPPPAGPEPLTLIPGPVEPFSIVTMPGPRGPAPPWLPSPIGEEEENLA
CD274: Programmed cell death 1 ligand 1 (CD274, Homo sapiens, UniProt Q9NZQ7)
Chain of UniProt Q9NZQ7 (whole entry, looked up): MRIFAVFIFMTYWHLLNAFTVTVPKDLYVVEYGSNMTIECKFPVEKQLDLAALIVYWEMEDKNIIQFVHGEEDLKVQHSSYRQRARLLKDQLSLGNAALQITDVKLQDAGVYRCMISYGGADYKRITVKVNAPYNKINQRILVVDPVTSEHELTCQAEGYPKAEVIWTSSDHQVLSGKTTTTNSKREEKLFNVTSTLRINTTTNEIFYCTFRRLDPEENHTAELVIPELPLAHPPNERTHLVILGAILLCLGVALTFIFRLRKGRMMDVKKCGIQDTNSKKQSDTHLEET
TOP2A: DNA topoisomerase 2-alpha (TOP2A, Homo sapiens, UniProt P11388)
Chain of UniProt P11388 (whole entry, looked up): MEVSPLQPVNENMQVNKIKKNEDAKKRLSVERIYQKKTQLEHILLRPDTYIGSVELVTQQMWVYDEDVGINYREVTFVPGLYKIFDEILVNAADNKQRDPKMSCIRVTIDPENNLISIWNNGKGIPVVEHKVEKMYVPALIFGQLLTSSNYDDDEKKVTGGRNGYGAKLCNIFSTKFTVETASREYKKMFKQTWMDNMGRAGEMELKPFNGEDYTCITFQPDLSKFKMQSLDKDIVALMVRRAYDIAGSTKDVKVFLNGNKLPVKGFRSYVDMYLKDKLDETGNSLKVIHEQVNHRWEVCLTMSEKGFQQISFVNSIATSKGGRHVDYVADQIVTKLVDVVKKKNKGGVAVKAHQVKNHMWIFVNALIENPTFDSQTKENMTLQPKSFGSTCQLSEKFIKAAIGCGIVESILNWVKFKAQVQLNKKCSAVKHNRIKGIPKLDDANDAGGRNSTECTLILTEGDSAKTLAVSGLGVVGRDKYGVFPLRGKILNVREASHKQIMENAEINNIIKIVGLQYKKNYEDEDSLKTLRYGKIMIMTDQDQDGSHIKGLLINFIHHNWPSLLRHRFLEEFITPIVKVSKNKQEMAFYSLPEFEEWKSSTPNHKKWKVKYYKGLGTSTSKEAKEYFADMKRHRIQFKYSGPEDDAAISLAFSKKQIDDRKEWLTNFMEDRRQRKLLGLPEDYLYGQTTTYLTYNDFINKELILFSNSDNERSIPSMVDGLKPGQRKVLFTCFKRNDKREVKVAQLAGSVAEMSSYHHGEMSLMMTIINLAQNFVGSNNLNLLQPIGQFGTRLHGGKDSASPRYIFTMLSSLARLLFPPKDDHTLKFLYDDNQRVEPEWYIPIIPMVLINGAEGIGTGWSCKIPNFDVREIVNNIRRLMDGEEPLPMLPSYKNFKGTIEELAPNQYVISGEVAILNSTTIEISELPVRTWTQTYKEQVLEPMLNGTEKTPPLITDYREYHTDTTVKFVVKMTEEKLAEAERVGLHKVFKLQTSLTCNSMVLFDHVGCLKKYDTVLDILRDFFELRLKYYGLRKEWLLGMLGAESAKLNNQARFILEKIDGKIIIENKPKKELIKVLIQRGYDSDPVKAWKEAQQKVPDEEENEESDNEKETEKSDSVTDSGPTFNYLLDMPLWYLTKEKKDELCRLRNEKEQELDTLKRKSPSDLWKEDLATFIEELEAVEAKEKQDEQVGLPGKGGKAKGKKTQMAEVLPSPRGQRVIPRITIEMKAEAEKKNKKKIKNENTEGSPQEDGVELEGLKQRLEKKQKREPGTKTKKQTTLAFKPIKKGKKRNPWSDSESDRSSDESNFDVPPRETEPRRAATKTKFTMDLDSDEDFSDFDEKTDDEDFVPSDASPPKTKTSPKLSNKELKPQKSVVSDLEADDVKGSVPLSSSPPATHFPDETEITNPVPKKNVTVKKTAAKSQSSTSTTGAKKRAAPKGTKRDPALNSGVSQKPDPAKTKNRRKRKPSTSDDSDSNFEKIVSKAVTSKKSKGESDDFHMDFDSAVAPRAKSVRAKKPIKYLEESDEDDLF
Chain of UniProt Q9EP73 (whole entry, looked up): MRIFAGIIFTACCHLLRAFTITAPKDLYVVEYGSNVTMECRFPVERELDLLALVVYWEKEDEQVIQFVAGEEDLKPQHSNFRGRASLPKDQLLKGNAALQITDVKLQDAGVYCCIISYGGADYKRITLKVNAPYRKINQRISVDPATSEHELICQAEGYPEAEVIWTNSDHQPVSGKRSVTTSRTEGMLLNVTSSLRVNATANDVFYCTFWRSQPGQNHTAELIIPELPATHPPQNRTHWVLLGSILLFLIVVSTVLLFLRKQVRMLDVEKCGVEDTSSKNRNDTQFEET
Chain of UniProt O76090 (whole entry, unmodified, looked up): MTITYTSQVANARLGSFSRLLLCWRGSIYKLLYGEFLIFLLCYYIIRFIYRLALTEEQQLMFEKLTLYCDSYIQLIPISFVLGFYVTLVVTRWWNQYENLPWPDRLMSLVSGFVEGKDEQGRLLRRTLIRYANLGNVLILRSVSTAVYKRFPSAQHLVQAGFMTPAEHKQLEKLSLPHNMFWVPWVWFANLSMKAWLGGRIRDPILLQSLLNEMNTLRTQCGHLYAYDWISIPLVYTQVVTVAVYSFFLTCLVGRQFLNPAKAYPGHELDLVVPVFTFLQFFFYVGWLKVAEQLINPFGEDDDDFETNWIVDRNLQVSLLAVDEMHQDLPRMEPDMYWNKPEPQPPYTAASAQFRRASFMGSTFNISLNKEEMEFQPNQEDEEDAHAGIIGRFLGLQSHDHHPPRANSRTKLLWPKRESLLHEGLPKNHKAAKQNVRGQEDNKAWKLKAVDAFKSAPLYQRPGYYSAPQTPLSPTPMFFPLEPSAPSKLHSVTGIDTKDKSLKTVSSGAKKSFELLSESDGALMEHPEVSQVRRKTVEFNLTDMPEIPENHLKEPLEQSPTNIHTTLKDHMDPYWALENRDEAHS
Chain of UniProt Q96S37 (whole entry, looked up): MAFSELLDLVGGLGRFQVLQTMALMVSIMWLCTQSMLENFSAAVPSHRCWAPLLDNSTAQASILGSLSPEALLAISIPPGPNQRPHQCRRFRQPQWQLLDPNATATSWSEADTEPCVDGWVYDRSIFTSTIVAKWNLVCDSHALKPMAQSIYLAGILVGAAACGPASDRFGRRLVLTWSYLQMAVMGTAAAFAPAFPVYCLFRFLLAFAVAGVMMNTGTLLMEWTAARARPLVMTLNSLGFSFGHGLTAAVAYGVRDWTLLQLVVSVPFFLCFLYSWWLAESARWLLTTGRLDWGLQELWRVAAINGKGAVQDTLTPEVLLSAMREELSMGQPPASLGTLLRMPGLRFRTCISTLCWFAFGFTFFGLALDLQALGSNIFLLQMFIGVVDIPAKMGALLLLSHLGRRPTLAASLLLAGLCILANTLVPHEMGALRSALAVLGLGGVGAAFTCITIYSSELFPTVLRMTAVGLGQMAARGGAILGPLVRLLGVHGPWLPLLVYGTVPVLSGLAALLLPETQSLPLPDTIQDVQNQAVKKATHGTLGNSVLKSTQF
Chain of UniProt Q80VM9 (whole entry, looked up): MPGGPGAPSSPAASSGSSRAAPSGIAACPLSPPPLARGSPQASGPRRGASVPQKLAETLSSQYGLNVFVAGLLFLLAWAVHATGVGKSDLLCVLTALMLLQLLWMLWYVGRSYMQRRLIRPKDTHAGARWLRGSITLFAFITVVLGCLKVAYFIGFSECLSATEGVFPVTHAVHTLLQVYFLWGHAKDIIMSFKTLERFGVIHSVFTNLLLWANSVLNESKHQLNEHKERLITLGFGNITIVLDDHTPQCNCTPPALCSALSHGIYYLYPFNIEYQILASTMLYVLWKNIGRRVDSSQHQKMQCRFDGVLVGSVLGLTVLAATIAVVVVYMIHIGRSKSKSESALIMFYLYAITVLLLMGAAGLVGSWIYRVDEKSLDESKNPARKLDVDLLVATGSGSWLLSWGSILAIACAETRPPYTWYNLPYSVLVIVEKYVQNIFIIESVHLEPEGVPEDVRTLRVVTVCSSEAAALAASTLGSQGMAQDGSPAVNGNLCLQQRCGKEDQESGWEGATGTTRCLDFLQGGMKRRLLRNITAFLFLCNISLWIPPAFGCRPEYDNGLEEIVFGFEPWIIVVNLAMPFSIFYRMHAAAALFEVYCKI
Chain of UniProt Q16774 (whole entry, looked up): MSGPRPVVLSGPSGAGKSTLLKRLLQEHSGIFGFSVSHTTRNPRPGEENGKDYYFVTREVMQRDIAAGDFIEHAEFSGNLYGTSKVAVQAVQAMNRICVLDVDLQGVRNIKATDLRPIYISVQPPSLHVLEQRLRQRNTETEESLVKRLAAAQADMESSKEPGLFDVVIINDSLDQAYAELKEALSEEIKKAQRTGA
Chain of UniProt P07550 (whole entry, looked up): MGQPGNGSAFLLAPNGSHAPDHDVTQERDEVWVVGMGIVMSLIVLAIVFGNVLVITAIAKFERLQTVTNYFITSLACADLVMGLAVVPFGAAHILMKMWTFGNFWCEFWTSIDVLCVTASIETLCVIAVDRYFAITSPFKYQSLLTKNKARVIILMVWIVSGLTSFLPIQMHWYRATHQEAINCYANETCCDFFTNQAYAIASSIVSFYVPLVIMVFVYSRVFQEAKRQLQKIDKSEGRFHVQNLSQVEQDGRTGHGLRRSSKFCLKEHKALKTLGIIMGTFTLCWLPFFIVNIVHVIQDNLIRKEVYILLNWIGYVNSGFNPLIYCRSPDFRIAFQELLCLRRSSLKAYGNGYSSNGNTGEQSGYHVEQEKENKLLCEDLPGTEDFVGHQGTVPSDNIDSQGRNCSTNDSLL

SMILES	target	assay	test system	setting	how to read	endpoint	value
CC[C@@H](C)[C@@H](NC(=O)[C@@H](Cc1ccc(O)cc1)NC(=O)[C@H]1CCCN1C(=O)[C@@H](CCCNC(=N)N)NC(=O)[C@H](N)Cc1c[nH]cn1)C(=O)N[C@H](C)C(=O)N[C@H](Cc1c[nH]cn1)C(=O)N[C@H](CCCNC(=N)N)C(=O)N[C@@H](C(=O)N[C@H](Cc1ccc(O)cc1)C(=O)N[C@H](CO)C(=O)N[C@H](Cc1ccccc1)C(N)=O)C(C)C	Programmed cell death 1 ligand 1, with PD-1 (Cd274, Mus musculus, UniProt Q9EP73)	PD-1-Fc binding	B16	concentration not given, 48 h	–	PD-L1 blocking rate	12.1% and 6.14% and 18.9%
Oc1ccccc1-c1n[nH]cc1-c1ccnc2ccccc12	Actin-regulating kinase PRK1 (PRK1, Candida albicans, UniProt Q5A961)	kinase binding, MIB/MS competition	Candida albicans lysate	10 µM	baseline: DMSO, negative = stronger binding	log2 fold change	-0.33
CN(Cc1cnc2nc(N)nc(N)c2n1)c1ccc(C(=O)N2CCCCC2)cc1	Pteridine reductase 1 (Leishmania major, UniProt Q01782)	–	–	hDHFR weight 10	baseline: LmPTR1, LmDHFR over hDHFR, 1.0 selective, 0.0 non-selective	partition index	0.96
c1ccc(CCCCCOCCc2ccc3c(c2)OCCN3)cc1	ATP2A2 (Sus scrofa, UniProt P11607)	ATPase Vmax increase, activator	pig microsomes	0.1 to 50 µM	baseline: vehicle	Emax	~34%
C=CC(=O)N1CCC(COCC(=O)N2CCN(c3nc(-c4cnc(N)nc4C(F)F)nc(N4CCOC[C@@H]4C)n3)CC2)CC1	Serine/threonine-protein kinase Nek1 (NEK1, Homo sapiens, UniProt Q96PY6)	KINOMEscan	–	1 µM	–	remaining binding	90%
COc1cc(F)ccc1-c1ncnc(Nc2cccc(C[S@](C)(=N)=O)c2)n1	Proto-oncogene tyrosine-protein kinase receptor Ret (RET, Homo sapiens, UniProt P07949)	kinase activity	–	10 µM, with: 10 µM ATP	–	remaining activity	86%
C[S+](CC[C@H](N)C(=O)[O-])C[C@H]1O[C@@H](n2cnc3c(N)ncnc32)[C@H](O)[C@@H]1O (stereo partly drawn)	Histone-lysine N-methyltransferase 2C (KMT2C, Homo sapiens, UniProt Q8NEZ4)	substrate, enzyme-coupled methylation	–	with: H3 peptide 200 µM	–	apparent Km	0.0128 ± 0.0013 mM
Cc1nc(NC(=O)N2CCC[C@H]2C(N)=O)sc1-c1ccnc(C(C)(C)C(F)(F)F)c1	Phosphatidylinositol 4-kinase beta (PI4KB, Homo sapiens, UniProt Q9UBF8)	KINOMEscan	–	10 µM	–	remaining binding	1.7%
CN(C)C(=O)c1cc2cnc(Nc3ccc(N4CCNCC4)cn3)nc2n1C1CCCC1	ELANE	–	neutrophil supernatant	0.3 to 10 µM, cell-free	–	elastase activity	no effect
O=C1CCC(N2C(=O)C=C(Nc3cccc(C4(NCCc5ccc(C(F)(F)F)c(Cl)c5)CCC4)c3)C2=O)C(=O)N1 (stereo not drawn)	Cereblon/Ikaros	protein degradation, degrader, HiBiT luminescence	Jurkat	–	–	Dmax	84%
O=C(O)c1ccc(O)cc1	BEST2	whole-cell patch clamp	HEK293 transiently expressing channel	concentration not given, membrane potential 0 mV	–	current density	-0.18 pA/pF and -0.23 pA/pF and -0.57 pA/pF and -0.01 pA/pF and -0.06 pA/pF and -0.73 pA/pF and -0.4 pA/pF
Cc1cc(=O)oc2cc(O[C@@H]3O[C@H](CO)[C@@H](O)[C@H](O)[C@H]3O)ccc12	Lysosomal acid glucosylceramidase (GBA1, Homo sapiens, UniProt P04062, R534H)	substrate	–	–	–	Vmax/Km	0.002 pmol/min/µM
CCNC(=O)/C=C/c1cccc(Br)c1	Sodium-dependent neutral amino acid transporter B(0)AT1 (SLC6A19, Homo sapiens, UniProt Q695T7)	inhibitor, FLIPR membrane potential	CHO-BC cells	10 µM, unit not given	baseline: no inhibitor	remaining transport activity	0.124
CC(C)c1noc2ncc(C(=O)c3ccccc3O)cc12	Otop1 (Mus musculus, UniProt Q80VM9)	alkali-evoked current, whole-cell patch-clamp	–	10 µM, pH 8.5	–	normalized current I2/I1	2.67 and 2.85 and 1.6
O=c1cc(-c2ccc(OS(=O)(=O)[O-])cc2)oc2cc(OS(=O)(=O)[O-])cc(OCc3cccc(COc4cc(OS(=O)(=O)[O-])cc5oc(-c6ccc(OS(=O)(=O)[O-])cc6)cc(=O)c45)n3)c12.[Na+].[Na+].[Na+].[Na+]	ELANE	–	cystic fibrosis patient sputum	low salt, with: DNase	–	concentration for HNE decrease	> 250 µM
CCOC(=O)C1=C(CN2CCc3ccccc32)NC(=O)NC1c1ccccc1OC(F)F (stereo not drawn)	AASS, SDH domain (Homo sapiens, UniProt Q9UDR5)	binding, surface plasmon resonance	–	15 µM	–	SPR response	23.5 RU
COc1ccc(C(=O)/C=C/c2cccc(-c3cccc(-c4ccc(CNCc5c(C)cc(C)[nH]c5=O)c(OC)n4)c3C)c2)cc1	CD274	degrader, western blot	HL-60	1 µM	–	degradation	< 5%
O=c1nc(SCc2cc(F)cc(C(F)(F)F)c2)nc(SCc2cccc(C(F)(F)F)c2)[nH]1	TOP2A	decatenation	–	125 µM, replicate 2	–	decatenated DNA	0%
N[C@@H](Cc1ccccc1)C(=O)O	Beta-2 adrenergic receptor (ADRB2, Homo sapiens, UniProt P07550)	–	HEK293 expressing β2AR	100 µM	–	cAMP level	23.3 pmol/mg protein and 21 pmol/mg protein and 18.6 pmol/mg protein and 22.2 pmol/mg protein
Cc1cccc(N2CC(C(=O)O)CC2=O)c1 (stereo not drawn)	DNA damage-binding protein 1 (DDB1, Homo sapiens, UniProt Q16531)	binding, affinity selection mass spectrometry	–	–	baseline: other proteins in batch	log fold enrichment	0.022
O=C(O)c1ccc([N+](=O)[O-])cc1	BEST2	whole-cell patch clamp	HEK293 transiently expressing channel	concentration not given, membrane potential -80 mV	–	current density	-91.5 pA/pF and -290 pA/pF and -244 pA/pF and -201 pA/pF and -219 pA/pF
CCN(CCO)CCCC(C)Nc1ccnc2cc(Cl)ccc12 (stereo not drawn)	Sodium channel protein type 5 subunit alpha (SCN5A, Homo sapiens, UniProt Q14524)	sodium current	–	30 µM	–	activation V1/2	-48.9 ± 3.6 mV
CC(C)c1ccc(CSc2nc(SCc3ccc4sccc4c3)[nH]c(=O)n2)cc1	TOP2A	decatenation	–	31.25 µM, replicate 2	–	decatenated DNA	0%
CC(C)c1cc(CNc2nc(Nc3cc(C4CC4)[nH]n3)cc(N3CCN(C)CC3)n2)on1	Serine/threonine-protein kinase N1 (PKN1, Homo sapiens, UniProt Q16512)	inhibitor	–	–	–	Hill slope	-0.787
C[C@@H]1C[C@H](Nc2ccccc2)c2cc(F)ccc2N1C(=O)c1ccc(Cl)nc1	Ecdysone receptor (Aedes albopictus, UniProt Q9U3Y4)	ligand binding, inhibitor	intact cells	with: [3H]ponasterone A	direction not given	pIC50 Z-score	0.26
Nc1nc2c(ncn2[C@@H]2O[C@H](COP(=O)(O)O)[C@@H](O)[C@H]2O)c(=O)[nH]1	GUK1 (Homo sapiens, UniProt Q16774)	enzyme activity, NADH-coupled	–	62.5 µM, with: NaCl 150 mM	–	reaction velocity	0.0477 µM/s and 0.0684 µM/s and 0.0819 µM/s

SMILES	target	assay	test system	setting	how to read	endpoint	value
Nc1ccc(C(=O)O)cc1	BEST1, with wild-type BEST1 (Homo sapiens, UniProt O76090, Q293K)	ion current, whole-cell patch clamp	HEK293 co-expressing mutant and wild-type	concentration not given, voltage 40 mV	–	current density	3.44 pA/pF and 5.65 pA/pF and 8.73 pA/pF and 6.77 pA/pF and 15.6 pA/pF and 5.14 pA/pF
Nc1ncnc2c1ncn2[C@@H]1O[C@H](COP(=O)(O)CP(=O)(O)OP(=O)(O)O)[C@@H](O)[C@H]1O	P2X purinoceptor 1 (P2RX1, Homo sapiens, UniProt P51575, D97A)	calcium influx	–	31.6 nM	baseline: ionomycin response	calcium influx	1.9% and 1.41% and 5.65% and 4.39%
CCN1CCC[C@H]1CNC(=O)c1c(O)c(Cl)cc(Cl)c1OC	Probable G-protein coupled receptor 142 (Homo sapiens, UniProt Q7Z601)	β-arrestin recruitment, TANGO luminescence, item: GPR142	–	concentration not given	baseline: basal luminescence	log2 fold change	0.4
O=c1nc(SCc2cc(F)cc(C(F)(F)F)c2)nc(SCc2ccc3nc(Cl)ccc3c2)[nH]1	TOP2A	decatenation	–	15.6 µM, replicate 2	–	decatenated DNA	21.5%
NC(N)=S	Urea transporter 1 (Homo sapiens, UniProt Q13336)	transport	–	–	–	Km	19 mM
Nc1nc2c(nc(Sc3ccc(Cl)cc3)n2C2O[C@@H]3COP(=O)(O)O[C@H]3[C@H]2O)c(=O)[nH]1 (stereo in doubt)	anti-cGMP antibody	antibody binding, competitive cGMP EIA	–	concentration not given, acetylated samples	baseline: EC50 cGMP over EC50 cpd, higher = stronger binding	relative binding affinity	2.41
CCN1CCN(c2cc(N3CCN(CC)CC3)nc(NCCNc3ccnc4cc(Cl)ccc34)n2)CC1	Retinoic acid receptor alpha (RARA, Homo sapiens, UniProt P10276)	reporter gene, Gal4 hybrid reporter	–	20 µM	baseline: vehicle	activation	1.6 fold
NCCCS(=O)(=O)O	Sodium- and chloride-dependent taurine transporter (SLC6A6, Homo sapiens, UniProt P31641, G62A)	binding, microscale thermophoresis	–	488 nM, room temperature, with: 50 nM labelled protein	higher = more binding	normalised MST signal	0.024
O=c1nc(SCc2cc(F)cc(C(F)(F)F)c2)nc(SCc2ccc3ncsc3c2)[nH]1	TOP2A	decatenation	–	125 µM, replicate 2	–	decatenated DNA	0%
CCc1oc2ccccc2c1C(=O)c1cc(Br)c(O)c(Br)c1	Solute carrier family 22 member 12 (SLC22A12, Homo sapiens, UniProt Q96S37)	inhibitor	HEK-293T	1 µM, 10 min, 37 °C, with: [14C]urate 10 µM	–	normalized urate uptake	0.353 and 0.383 and 0.368
O=C1Nc2ccc(I)cc2/C1=C/c1cc(Br)c(O)c(Br)c1	Protein-glutamine gamma-glutamyltransferase (TGM2, Homo sapiens, UniProt P21980)	enzyme activity, inhibitor	–	with: Triton X-100 0.02%	–	potency	decreased
CC[S+]([O-])c1nc(-c2ccccc2)cc(C(F)(F)F)n1 (stereo not drawn)	Importin subunit beta-1 (KPNB1, Homo sapiens, UniProt Q14974)	thermal shift	–	30 µM, 2 h	–	Tm2	52.3 °C
N#Cc1ccn2c(-c3ccncc3)c(-c3ccc(F)cc3)nc2c1	Mitogen-activated protein kinase MKC1 (MKC1, Candida albicans, UniProt P43068)	kinase binding, competitor, MIB/MS competition, item: MKC1	Candida albicans cell lysate	100 nM	baseline: DMSO	log2 fold change	0.0668
Cc1nc(CSc2nc(SCc3ccc(C(C)C)cc3)nc(=O)[nH]2)cs1	TOP2A	DNA cleavage	–	31.25 µM, replicate 2	–	linear DNA	0%
CCCCC[C@H](O)/C=C/[C@H]1C(=O)C[C@H](O)[C@@H]1C/C=C\CCCC(=O)O	Prostaglandin D2 receptor (PTGDR, Homo sapiens, UniProt Q13258, D262A)	agonist	–	0.01953 µM	–	activation	74.5%
CCC(=O)N[C@H](CC(C)C)C(=O)N1C(=O)C=C(OC)[C@@H]1CC(C)C	Androgen receptor (AR, Homo sapiens, UniProt P10275, T878A)	–	LNCaP	5 µM	–	activity	inactive
C=C1CN(S(=O)(=O)c2ccc(C)cc2)CCCN(Cc2ccccc2)CCCN(S(=O)(=O)c2ccc(C)cc2)C1	Protein transport protein Sec61 subunit alpha isoform 1 (Homo sapiens, UniProt P61619)	item: control signal peptide-FLuc reporter	HEK293	0.0043 mM, 6 h	–	FLuc/RLuc ratio	1.14
O=c1nc(SCc2cc(F)cc(C(F)(F)F)c2)nc(SCc2ccc3sccc3c2)[nH]1	TOP2A	DNA relaxation	–	62.5 µM, replicate 2	–	relaxed DNA	1.2%
COc1ccc(C(=O)/C=C/c2cccc(-c3cccc(-c4ccc(CN[C@@H](CO)C(N)=O)c(OC)n4)c3C)c2)cc1	CD274	degrader, western blot	HL-60	1 µM	–	degradation	< 5%
NCc1ccc(S(N)(=O)=O)cc1	Carbonic anhydrase 4 (CA4, Homo sapiens, UniProt P22748)	ITC	–	concentration not given, 25 °C	–	intrinsic binding ΔG	-12.3 kcal/mol
CC(C)(NCCCc1ccc(C(F)(F)F)c(Cl)c1)c1cccc(NC2=CC(=O)N(C3CCC(=O)NC3=O)C2=O)c1 (stereo not drawn)	Cereblon/Ikaros	protein degradation, degrader, HiBiT luminescence	Jurkat	–	–	Dmax	84%
CCC1(O)CCCN(C(=O)c2ccc(-c3ccc(F)c(NC(=O)CCl)c3)cc2)C1 (stereo not drawn)	DNA dC->dU-editing enzyme APOBEC-3A (Homo sapiens, UniProt P31941)	covalent adduct, intact protein MS	–	3 h, 10-fold excess, 250 µM	–	unmodified protein	0%
C=CC(=O)N1CCC[C@@H](n2nc(-c3ccc(Oc4ccccc4)cc3)c3c(N)ncnc32)C1	Tyrosine-protein kinase TXK (TXK, Homo sapiens, UniProt P42681)	–	–	10 µM	–	remaining activity	45.9%
CC(C)c1cccc2c(/C=C/c3ccccc3)cc(-c3ccc(-c4ccc(C(=O)O)cc4)[nH]3)nc12	Retinoic acid receptor beta (RARB, Homo sapiens, UniProt P10826)	reporter gene, antagonist	–	–	baseline: IC50 RARα over IC50 RARB	selectivity ratio	~4 fold
Cc1nc(CSc2nc(SCc3cc(F)cc(C(F)(F)F)c3)nc(=O)[nH]2)cs1	TOP2A	decatenation	–	125 µM	–	mean decatenated DNA	3.5%

Repeated from above:
SMILES	target	assay	test system	setting	how to read	endpoint	value
CCc1oc2ccccc2c1C(=O)c1cc(Br)c(O)c(Br)c1	Solute carrier family 22 member 12 (SLC22A12, Homo sapiens, UniProt Q96S37)	inhibitor	HEK-293T	1 µM, 10 min, 37 °C, with: [14C]urate 10 µM	–	normalized urate uptake	0.353 and 0.383 and 0.368
O=C1Nc2ccc(I)cc2/C1=C/c1cc(Br)c(O)c(Br)c1	Protein-glutamine gamma-glutamyltransferase (TGM2, Homo sapiens, UniProt P21980)	enzyme activity, inhibitor	–	with: Triton X-100 0.02%	–	potency	decreased
CC[S+]([O-])c1nc(-c2ccccc2)cc(C(F)(F)F)n1 (stereo not drawn)	Importin subunit beta-1 (KPNB1, Homo sapiens, UniProt Q14974)	thermal shift	–	30 µM, 2 h	–	Tm2	52.3 °C
N#Cc1ccn2c(-c3ccncc3)c(-c3ccc(F)cc3)nc2c1	Mitogen-activated protein kinase MKC1 (MKC1, Candida albicans, UniProt P43068)	kinase binding, competitor, MIB/MS competition, item: MKC1	Candida albicans cell lysate	100 nM	baseline: DMSO	log2 fold change	0.0668
Cc1nc(CSc2nc(SCc3ccc(C(C)C)cc3)nc(=O)[nH]2)cs1	TOP2A	DNA cleavage	–	31.25 µM, replicate 2	–	linear DNA	0%
